Measured values from different studies.
A part holds a random share of what one study measured. Positions count from the first letter of the parent shown.

Sample 1
Target: TAR DNA-binding protein 43, full length, His tag (TARDBP, Homo sapiens, UniProt Q13148, residues 1-414)
Method: RNA Bind-n-Seq
Form: RNA
Sample: in vitro
Tested at: 20 nM
Setting: 6-mer, flanks averaged, single round
With: 150 mM KCl
Baseline: input library
Reading: higher = stronger binding
| Sequence | 6-mer enrichment (R) |
| --- | --- |
| CCGUUU | 0.609 |
| CGAGUG | 1.52 |
| CCCGGU | 0.723 |
| UCUUAA | 0.554 |
| AAUCUU | 0.587 |
| GAGUUG | 1.31 |
| GCAUGA | 1.04 |
| UUUAAC | 0.595 |

Sample 2
Target: Interferon regulatory factor 7, full length, phosphomimetic (IRF7, Homo sapiens, UniProt Q92985, residues 1-503, S101K/S471D/S472D/S475D/S476D/S477D/S483D/S484D/S487D)
Method: protein-binding microarray
Form: double-stranded DNA, one strand shown
Sample: in vitro
Tested at: 250 nM
Setting: 60-bp whole probe
With: salmon DNA 0.4 mg/ml
Baseline: random background probes
Reading: higher = stronger binding
All sequences stand within: GCCTAGCAC … GTCTTGATTCGCTTGACGCTGCTG
Construct (chain): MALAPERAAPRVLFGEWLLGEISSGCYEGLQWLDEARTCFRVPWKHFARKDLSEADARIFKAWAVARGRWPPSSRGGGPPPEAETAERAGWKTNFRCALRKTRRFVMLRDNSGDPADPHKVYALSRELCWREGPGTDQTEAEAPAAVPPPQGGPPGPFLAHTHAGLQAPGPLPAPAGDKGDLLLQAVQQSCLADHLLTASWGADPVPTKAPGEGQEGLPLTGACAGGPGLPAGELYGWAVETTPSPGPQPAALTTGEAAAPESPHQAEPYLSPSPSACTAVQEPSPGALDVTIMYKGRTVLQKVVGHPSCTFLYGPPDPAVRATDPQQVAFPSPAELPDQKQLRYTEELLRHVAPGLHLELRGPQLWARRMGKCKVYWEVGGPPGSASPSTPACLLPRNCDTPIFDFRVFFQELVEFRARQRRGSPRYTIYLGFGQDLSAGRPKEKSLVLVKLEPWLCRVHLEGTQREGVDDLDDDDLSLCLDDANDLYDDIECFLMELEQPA
| Sequence | log fluorescence [z-score] |
| --- | --- |
| GACGGTTTCGGGTACCGGGACGTGCTA | 6.14 |
| GACGGTATCGGTAGCGGGACGTGCTAG | -0.364 |
| TTAGGTTTCGACTTTCGATTAGTGCTA | 11.8 |
| CTAATTTCCATTTTCTAAATGTGCTAG | 4.32 |
| GAAAATTAGTGTTTTGCCCTGTGCTAG | -0.0108 |
| TCAAATTTTAGTAACACACTGTGCTAG | -0.0516 |
| GACGACCTGAGTCTCGAGACGTGCTAG | 0.344 |
| TTAGATTTCAGTCTAGATTAGTGCTAG | 0.0689 |

Sample 3
Target: ABI1, truncated, D143A, DHFR fusion (Arabidopsis thaliana, UniProt P49597)
Method: DHFR PCA, dose-response
Sample: yeast
Setting: Hill fit, mean, not affinity
With: (+)-ABA, dose series
Reading: lower = more sensitive
Starting sequence: PYL1, truncated, DHFR fusion (Arabidopsis thaliana, UniProt Q8VZS8); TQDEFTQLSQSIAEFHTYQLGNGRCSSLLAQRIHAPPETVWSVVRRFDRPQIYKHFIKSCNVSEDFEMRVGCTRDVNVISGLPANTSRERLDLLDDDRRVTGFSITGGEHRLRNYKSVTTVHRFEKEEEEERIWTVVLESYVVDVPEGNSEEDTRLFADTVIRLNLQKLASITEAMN
| Variant | ABA EC50 |
| --- | --- |
| I12A | 52.7 µM |
| F66L | 8.59 µM |
| S104I | 706 µM |
| F103L | 401 µM |
| R113A | 2.74 µM |
| L29S | 39.9 µM |
| E14M | 5.04 µM |
| V100S | 69.2 µM |

Other studies, line by line
Starting sequence: viral docking peptide; TSVRRALFTGGSD; partner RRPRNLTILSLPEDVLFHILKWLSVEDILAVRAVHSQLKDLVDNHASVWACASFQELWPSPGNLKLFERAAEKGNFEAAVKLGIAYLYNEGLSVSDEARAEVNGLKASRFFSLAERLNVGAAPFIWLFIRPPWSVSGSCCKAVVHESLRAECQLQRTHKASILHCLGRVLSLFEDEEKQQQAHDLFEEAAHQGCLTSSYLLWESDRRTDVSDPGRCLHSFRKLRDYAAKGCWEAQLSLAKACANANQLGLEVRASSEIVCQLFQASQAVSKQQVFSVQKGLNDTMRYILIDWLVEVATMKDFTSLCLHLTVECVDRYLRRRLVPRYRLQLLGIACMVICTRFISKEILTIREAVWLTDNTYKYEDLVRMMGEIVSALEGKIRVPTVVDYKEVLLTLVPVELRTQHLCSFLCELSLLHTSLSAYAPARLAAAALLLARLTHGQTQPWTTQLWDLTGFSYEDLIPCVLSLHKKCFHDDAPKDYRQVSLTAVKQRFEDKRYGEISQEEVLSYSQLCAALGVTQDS
| Variant | target | test | system | setting | how to read | measurement | result |
| --- | --- | --- | --- | --- | --- | --- | --- |
| S12G | CCNF, cyclin fold, Cln2 fusion (human) | yeast growth competition, sequencing | yeast | strong parent motif | baseline: not given, higher = stronger binding | normalised enrichment score | 8.06 |

Excerpt of the above (sample 2):
| Sequence | log fluorescence [z-score] |
| --- | --- |
| GAAAATTAGTGTTTTGCCCTGTGCTAG | -0.0108 |
| TTAGGTTTCGACTTTCGATTAGTGCTA | 11.8 |
| CTAATTTCCATTTTCTAAATGTGCTAG | 4.32 |
